# Measured values pooled from the literature.
# Protocols differ between the studies behind these lines. ± gives the spread as reported.
Substance,test,test system,conditions,how to read,endpoint,result
CCN(Cc1ccccc1)C(=O)CCc1nc(CN2CCN(C(=O)Cc3ccc(OC)c(OC)c3)CC2)no1,current clamp,"L4-L6 DRG neurons, rat CCI model",3 µM,,rheobase,400 ± 42.3 pA
CC[C@H](C)[C@H](NC(=O)[C@H](CCCNC(=N)N)NC(=O)[C@H](CCC(N)=O)NC(=O)[C@H](CC(=O)O)NC(=O)[C@H](CC(C)C)NC(=O)[C@H](CC(C)C)NC(=O)[C@H](CC(N)=O)NC(=O)[C@H](Cc1ccccc1)NC(=O)[C@H](CC(=O)O)NC(=O)[C@@H](NC(=O)[C@@H](NC(=O)[C@H](CC(N)=O)NC(=O)CNC(=O)[C@H](CO)NC(C)=O)C(C)C)[C@@H](C)CC)C(=O)N[C@H](C(=O)N[C@@H](Cc1c[nH]c2ccccc12)C(=O)N[C@@H](CCC(N)=O)C(=O)N[C@@H](CC(N)=O)C(=O)N[C@@H](Cc1c[nH]c2ccccc12)C(=O)N[C@@H](Cc1ccc(O)cc1)C(=O)N[C@@H](C)C(N)=O)[C@@H](C)CC,item: HA-02 tetramer,"tetramer+ CD4 T cells, PBMC, healthy adults, HLA-DRB1*0101","dose not given, CD62L−CD45RA+/− or CD62L+CD45RA−",,antigen-experienced T cells,53.8%
C=CCCCCOP(=O)(O)Oc1c2c(c(OP(=O)(O)OCCCCC=C)c3c1C1CC3c3cc4c(cc31)C1CC4c3ccccc31)C1CC2c2cc3c(cc21)C1CC3c2ccccc21,liposome dye leakage,liposomes 200 nm,"30 min, added: carboxyfluorescein 50 mM",,EC50,18 µM
COC[C@@H](NC(C)=O)C(=O)NCc1ccc(OCc2ccc(Cl)cc2)cc1,6 Hz seizures,mouse,intraperitoneal,,ED50,7.6 mg/kg
CCN(CCCCOc1ccc(CCC(=O)N2CCC(Cc3ccccc3)CC2)cc1OC)Cc1ccccc1,,"APP/PS1 transgenic mouse, plasma",dose not given,baseline: untreated model,triglyceride level,decreased
N=C(N)NCCC[C@H](NC(=O)[C@H](CCCNC(=N)N)NC(=O)[C@H](CCCNC(=N)N)NC(=O)[C@H](CCC(N)=O)NC(=O)[C@H](CCCNC(=N)N)NC(=O)[C@H](CCCNC(=N)N)NC(=O)[C@H](CCCCN)NC(=O)[C@H](CCCCN)NC(=O)[C@H](CCCNC(=N)N)NC(=O)[C@H](Cc1c[nH]c2ccccc12)NC(=O)[C@H](Cc1c[nH]c2ccccc12)NC(=O)[C@@H](N)CSSC[C@H](N)C(=O)N[C@@H](Cc1c[nH]c2ccccc12)C(=O)N[C@@H](Cc1c[nH]c2ccccc12)C(=O)N[C@@H](CCCNC(=N)N)C(=O)N[C@@H](CCCCN)C(=O)N[C@@H](CCCCN)C(=O)N[C@@H](CCCNC(=N)N)C(=O)N[C@@H](CCCNC(=N)N)C(=O)N[C@@H](CCC(N)=O)C(=O)N[C@@H](CCCNC(=N)N)C(=O)N[C@@H](CCCNC(=N)N)C(=O)N[C@@H](CCCNC(=N)N)C(=O)NCC(N)=O)C(=O)NCC(N)=O,,"ROSA26-LSL-tdTomato mice, sensorimotor cortex","intracortical, 200 µM, region 2, added: TAT-Cre 40 µM",,tdTomato-positive neurons,~50%
CCOP(=O)(OCC)OCCCCOC(=O)CC1=C(C)C(=Cc2ccc([S+](C)[O-])cc2)c2ccc(F)cc21 (centres unmarked),,"BALB/c nude mice, orthotopic A549-GFP xenograft","inhalation, dose not given, died by week 8",,mortality,6%
CC[C@H](C)[C@H](NC(=O)[C@@H](NC(=O)[C@H](CC(=O)O)NC(C)=O)[C@@H](C)O)C(=O)N[C@@H](CCCNC(=N)N)C(=O)N[C@@H](CC(C)C)C(=O)N[C@@H](CC(C)C)C(=O)N[C@@H](Cc1ccccc1)C(=O)N[C@@H](CCC(N)=O)C(=O)N[C@@H](CC(C)C)C(=O)N[C@@H](CCSC)C(=O)N[C@@H](CCCNC(=N)N)C(=O)N1CCC[C@H]1C(=O)N1CCC[C@H]1C(=O)N[C@@H](CC(N)=O)C(=O)N[C@@H](CCSC)C(=O)N[C@H](C(=O)N1CCC[C@H]1C(=O)N[C@@H](C)C(=O)N[C@H](C(=O)N[C@@H](CC(N)=O)C(=O)N[C@@H](C)C(N)=O)C(C)C)[C@@H](C)O,item: HA-52 tetramer,"tetramer+ CD4 T cells, PBMC, healthy adults, HLA-DRB1*0101","dose not given, CD62L−CD45RA+/− or CD62L+CD45RA−",,antigen-experienced T cells,16.5%
CCCCCCCC/C=C\CCCCCCCCOP(O)(O)=S.N,,"mouse, proximal jejunum crypts","subcutaneous, added: 10.6 Gy total-body irradiation",,dose of crypt protection plateau,> 2 mg/kg
O=C(O)CCCC(=O)O,"DPPH scavenging, absorbance",,,,IC50,72 µg/mL
CC(C)C[C@H](NC(=O)[C@@H](N)CCCNC(=N)N)C(=O)N[C@@H](CCCNC(=N)N)C(=O)N[C@@H](Cc1c[nH]c2ccccc12)C(=O)N1CCC[C@H]1C(=O)N[C@@H](CCCNC(=N)N)C(=O)N1CCC[C@H]1C(=O)N[C@@H](CCCNC(=N)N)C(=O)N[C@@H](Cc1c[nH]c2ccccc12)C(=O)N[C@@H](CCCNC(=N)N)C(=O)N[C@@H](CCCCN)C(=O)N1CCC[C@H]1C(=O)N1CCC[C@H]1C(=O)O,ABTS,,1 mg/mL,,ABTS radical scavenging,62%
C#CCC(C)OP(=O)(O)Oc1c2c(c(OP(=O)(O)OC(C)CC#C)c3c1C1CC3c3cc4c(cc31)C1CC4c3ccccc31)C1CC2c2cc3c(cc21)C1CC3c2ccccc21 (centres unmarked),liposome dye leakage,liposomes 200 nm,"30 min, added: carboxyfluorescein 50 mM",,EC50,60.9 µM
CS(C)(=O)=Nc1ccc(-c2ccc(-c3nc4cc(O[C@@H]5CO[C@H]6[C@@H]5OC[C@H]6O)[nH]c4cc3F)cc2)cc1,indirect calorimetry,wild-type mouse,10 mg/kg,,change in respiratory quotient,decreased
Cc1ccc(/C=C/C(=O)O)cc1-c1cc2c(cc1C)C(C)(C)CCC2(C)C,"RNA sequencing, item: Ccl6 mRNA","rat, brain","dose not given, 24 h, single dose",baseline: vehicle,log2 fold change,-0.91
O=c1c(O)c(-c2cc(O)ccc2O)oc2cc(O)cc(O)c12,,,1000 µg/mL,,ABTS radical scavenging,86.1 ± 2.31%
CC(C)C[C@H](NC(=O)[C@H](C)NC(=O)CNC(=O)[C@H](CC(C)C)NC(=O)[C@@H](NC(=O)[C@H](CC(N)=O)NC(=O)[C@H](CCC(=O)O)NC(=O)[C@@H]1CCCN1C(=O)[C@@H]1CCCN1C(=O)[C@@H](NC(=O)[C@H](CCC(=O)O)NC(=O)[C@@H]1CCCN1C(=O)CNC(=O)[C@H](CC(C)C)NC(=O)[C@H](CC(=O)O)NC(=O)[C@H](CCC(N)=O)NC(=O)[C@H](CC(=O)O)NC(=O)[C@@H](NC(=O)[C@@H](N)CO)C(C)C)C(C)C)C(C)C)C(=O)N[C@@H](CC(C)C)C(=O)N[C@@H](CCCNC(=N)N)C(=O)N[C@H](C(=O)O)C(C)C,"evoked EPSC amplitude reduction, voltage clamp",rat PVN slices,,,EC50,~0.008 µM
CC(C)C[C@H](NC(=O)CNC(=O)[C@H](CO)NC(=O)[C@@H](NC(=O)[C@@H](N)CCC(=O)O)C(C)C)C(=O)N[C@@H](CCC(=O)O)C(=O)N[C@@H](CCC(N)=O)C(=O)N[C@@H](CC(C)C)C(=O)N[C@@H](CCC(=O)O)C(=O)O,Griess,"RAW264.7, mouse","1000 µg/mL, 24 h, added: heat-killed Cutibacterium acnes 100 µg/mL",baseline: no peptide control,NO production,50.9%
O=P(O)(OCCCc1ccccc1)Oc1c2c(c(OP(=O)(O)OCCCc3ccccc3)c3c1C1CC3c3cc4c(cc31)C1CC4c3ccccc31)C1CC2c2cc3c(cc21)C1CC3c2ccccc21,liposome dye leakage,liposomes 200 nm,"30 min, added: carboxyfluorescein 50 mM",,EC50,3.7 µM
somatostatin,,"Sprague-Dawley rat, streptozotocin-induced diabetes, retina","eye drops, 10 mg/mL, score 0",,GFAP-positive glial activation,50%
C[C@@H](NC(=O)[C@@H](N)Cc1ccc(O)cc1)C(=O)NCC(=O)N(C)[C@@H](Cc1ccccc1)C(=O)NCCO,,C57BL/6 mouse striatal membranes,concentration not given,baseline: basal,stimulation,1.68 ± 0.02 fold
CC1=C(C(=O)Nc2ccc(C)cc2)C(c2ccccc2Br)NC(=S)N1 (centres unmarked),carotid artery cannulation,"male Wistar rats, anaesthetised","0.3 mL, 3 h",,mean arterial pressure,23.5 ± 0.73 mm Hg
CC[C@H](C)[C@H](NC(=O)[C@H](Cc1c[nH]c2ccccc12)NC(=O)[C@H](CCCNC(=N)N)NC(=O)[C@H](CCCCN)NC(=O)[C@H](CC(C)C)NC(=O)[C@H](CC(=O)O)NC(=O)[C@H](Cc1ccccc1)NC(=O)[C@H](C)NC(=O)[C@H](Cc1ccc(O)cc1)NC(=O)[C@H](CC(N)=O)NC(=O)[C@H](Cc1ccc(O)cc1)NC(=O)[C@H](CCCNC(=N)N)NC(=O)[C@H](Cc1ccc(O)cc1)NC(=O)[C@H](Cc1ccc(O)cc1)NC(=O)[C@@H](NC(=O)[C@H](CC(C)C)NC(=O)[C@H](C)NC(=O)[C@H](CC(N)=O)NC(=O)[C@H](Cc1ccc(O)cc1)NC(C)=O)[C@@H](C)CC)C(=O)N[C@@H](Cc1ccc(O)cc1)C(=O)N[C@@H](CC(C)C)C(N)=O,item: HA-02 tetramer,"tetramer+ CD4 T cells, PBMC, healthy adults, HLA-DRB1*0101","dose not given, CD62L−CD45RA+/− or CD62L+CD45RA−",,antigen-experienced T cells,61.1%
O=C1C=CC(=O)C(c2cc(Cl)ccc2Cl)=C1,"ELISPOT, item: IFNγ+ cells",mouse splenocytes,"concentration not given, maximal induction, comparable dose",baseline: SSG,fold induction,~58 fold
O=C(O)/C=C/c1cc(O)cc(O)c1,,,1000 µg/mL,,ABTS radical scavenging,84.1 ± 2.11%
CCCCCCCCN(CCC(=O)Nc1ccccc1)C(=O)c1ccccn1,,Lmna G609G/G609G mouse,"intraperitoneal, 40 mg/kg",,minimum survival,158 days
COc1ccc([N+](=O)[O-])cc1NC(=O)CCC(=O)[O][Zn][O]C(=O)CCC(=O)Nc1cc([N+](=O)[O-])ccc1OC.c1ccncc1,ABTS,,1000 µg/mL,,ABTS radical scavenging,80.5 ± 1.02%

# For quick reference, copied from above:
Substance,test,test system,conditions,how to read,endpoint,result
somatostatin,,"Sprague-Dawley rat, streptozotocin-induced diabetes, retina","eye drops, 10 mg/mL, score 0",,GFAP-positive glial activation,50%
CC(C)C[C@H](NC(=O)[C@@H](N)CCCNC(=N)N)C(=O)N[C@@H](CCCNC(=N)N)C(=O)N[C@@H](Cc1c[nH]c2ccccc12)C(=O)N1CCC[C@H]1C(=O)N[C@@H](CCCNC(=N)N)C(=O)N1CCC[C@H]1C(=O)N[C@@H](CCCNC(=N)N)C(=O)N[C@@H](Cc1c[nH]c2ccccc12)C(=O)N[C@@H](CCCNC(=N)N)C(=O)N[C@@H](CCCCN)C(=O)N1CCC[C@H]1C(=O)N1CCC[C@H]1C(=O)O,ABTS,,1 mg/mL,,ABTS radical scavenging,62%
O=P(O)(OCCCc1ccccc1)Oc1c2c(c(OP(=O)(O)OCCCc3ccccc3)c3c1C1CC3c3cc4c(cc31)C1CC4c3ccccc31)C1CC2c2cc3c(cc21)C1CC3c2ccccc21,liposome dye leakage,liposomes 200 nm,"30 min, added: carboxyfluorescein 50 mM",,EC50,3.7 µM
